Assay results gathered from unrelated publications.
Numbered parts are unrelated; each lists some results of a single study.

Study 1 — technique: RNA Bind-n-Seq; molecule type: RNA; medium: in vitro; tested at: 365 nM; baseline: no-protein control; direction: higher = stronger binding
Target: RNA binding protein fox-1 homolog 2, RRM domain, GST-SBP tag (RBFOX2, Homo sapiens, UniProt O43251-10, residues 100-194)
Notes: natural RNA segment, single round, ends assumed
Shared flanks, not repeated: GGGAGUUCUACAGUCCGACGAUC … UGGAAUUCUCGGGUGCCAA
Residues (chain): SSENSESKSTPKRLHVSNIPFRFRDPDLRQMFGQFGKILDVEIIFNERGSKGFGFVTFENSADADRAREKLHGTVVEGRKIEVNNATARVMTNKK
Sequence	RBNS enrichment (R)
CAUUUAUACCGAGUGAGAUCAUUAACAAUGAAAUUGAGAGAUUAGAGCAUCCUCACUGGGUGAUGGUAACAGGGAAUGUAGAGGGCUGAUAUCUUCCCCUAAGAGAGGCA	5.42
CAGGAGCCAAAUUUGUAAUUUAGAGACACUUAAUUUUGUUAAUCCUGUCUGGGACACUUAAGUAACAUCUAAAGCAUUAUUGCUUUAGAAUGUUCAAAUAAAAUUUCCUG	0.436
CAACAUCUGAAGGCUUAAAGAACAUUGUCGUUCUUCAGCCCUCCUUGCUUCUCUCAAUACAAUAAGACAUUGCAGAAGCAAAAGGGUGGCCUCUGCUCCAGGCAAGGCAG	0.308
GUUGUGAAAGUGUCUGUGCACAUGAAUGUUUGUGUGUGUGUGAACUCUUUCUUACUGCUGGAAGUCACAGAAUUCAUAUUGCUGCCCGGGUUGGUGUGGCCACCUUUCCC	1.41
AAGCAAGACUGGGACCUUAGAAAUCAUUGUAGAAACACAGUUUUGAAAGAAAAAUACCAUGUCUCUAAGCCAACUUUAAUUGCUUAAAAGACAUUUUUAUUUAGUUGAAA	0.391
AUGGAGAGGUGGGCAGGGGUUCCAGCUUCCCUUUGAUUUUUUGCUGCAGACUCAUCCUUUUUAAAUGAGACUUGUUUUCCCCUCUCUUUGAGUCAAGUCAAAUAUGUAGA	0.624
UUUCAAGAACUUGUUUAAUAAAGCGAAAAACUCAACCAAAUGGUACAAAACCACAGUGUACCAUUAAAAUAUGCACUAAGUCUCUUUUUUACAAAGGCUGUAUUCAGCAA	0.542
UAUUAAUGCAAUAAAUUAACUUUGUACACAUUUUUAUAUAAAAAAACAGCAAGUGAUUUCAGAAUGUUGUAGGCCUCAUUAGAGCUUGGUCUCCAAAAAUCUGUUUGAAA	0.642
UACGGGGAUUUACAUAGAUUACAGUGGCCAAGACCCCUUUCUCAAUGAAGGAUCUCAUUGGACGUCCUGUCAAUCAUUAAUCUACAUGCAGGCUUGUUCCCACACUACCU	0.379
AGUAUUGAAUGUACUUUGUAUAAUUUUAGUGGAAUUGUUAUUGAGAAUAAAAUUUUUACAAUCAUAACUGGCUUUUUCCAAGUAACUAGCUGCAGACUCUGAUGAAAGAA	0.784
GUAGAUGUUAGGACCAACUGAGAAGGUCCAACACAAGUGUGGAUUUUUCCAUGUGUCAAAAAUCUCAUCACCCCACUUGCCUAAUUAGAGUAACCCAGCCCCUAAAUUUA	0.455
UUUUUUUGCUUGUUUUGGUUCUGUUCUCACUUUUAAAGGAUGCUGAGAUGGUAAUAUGACUCUCCAUAUUUUGGUACCAAUUCUGAGACUGUAUGAAUUUUCAGGUGGAA	1.36

Study 2 — technique: RNA Bind-n-Seq; molecule type: RNA; medium: in vitro; tested at: 1 µM; notes: whole 134-nt RNA, ends assumed; with: 150 mM KCl; baseline: input library; direction: higher = stronger binding
Target: Ras GTPase-activating protein-binding protein 1, RRM domain (G3BP1, Homo sapiens, UniProt Q13283)
UniProt Q13283, sequence (whole entry, looked up): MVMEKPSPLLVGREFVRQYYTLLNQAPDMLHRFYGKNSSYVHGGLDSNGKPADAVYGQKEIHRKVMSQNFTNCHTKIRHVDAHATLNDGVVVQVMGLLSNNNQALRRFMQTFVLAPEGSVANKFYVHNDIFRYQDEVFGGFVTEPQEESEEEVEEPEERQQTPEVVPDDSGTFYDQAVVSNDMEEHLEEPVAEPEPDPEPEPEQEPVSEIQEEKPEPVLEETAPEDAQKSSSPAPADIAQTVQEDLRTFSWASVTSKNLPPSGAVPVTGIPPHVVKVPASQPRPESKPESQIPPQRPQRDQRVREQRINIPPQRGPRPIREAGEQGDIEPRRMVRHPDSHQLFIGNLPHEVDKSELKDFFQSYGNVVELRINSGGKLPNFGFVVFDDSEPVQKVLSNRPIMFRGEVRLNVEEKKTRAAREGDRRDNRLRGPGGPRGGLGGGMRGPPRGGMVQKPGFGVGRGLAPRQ
Shared flanks, not repeated: GGGAGUUCUACAGUCCGACGAUC … UGGAAUUCUCGGGUGUCAAGG
Sequence	log2 enrichment
CACAGACAACACGCACCCACACAGACACAGAGGGAAGGGGUUGGGAUGGGGAGAGGGUGCACAGCAGGGCGGGGUAGGACCCCAGCCCCU	0.252
UCCUGUGCUACACAUCGUAUGUACCGAAUCGGGAAAAAAAGGGUUUGGGUUUUUUUGGGAAAGUAUUAUGUUACGCCGUUCGGAUCUGCA	-0.0809
AAGUCCUGUGCUACACAUCGUAUGUACCGAAUCGGGCCCGGGGCCCGGGCCCGGGGAAAGUAUUAUGUUACGCCGUUCGGAUCUGCACUU	-0.716
AAGUCCUGUGCUACACAUCGUAUGUACCGAAUCGGGGCCCGGGGCCCGGGGCCCGGGAAAGUAUUAUGUUACGCCGUUCGGAUCUGCACU	-1.69
UGGAUCUUGGAGGGACCAACUUCCGUGUGCUUUGGGUGAAAGUAACGGACAAUGGGCUCCAGAAGGUGGAGAUGGAGAAUCAGAUCUAUG	-0.225
AGUUACGGUAGCAGUUCUCAGAGCAGCAGCUAUGGGCAGCCCCAGAGUGGGAGCUACAGCCAGCAGCCUAGCUAUGGUGGACAGCAGCAA	-0.394
AAGUCCUGUGCUACACAUCGUAUGUACCGAAUCGGGUGGGAAAAAGGGUUUUUGGGAAAGUAUUAUGUUACGCCGUUCGGAUCUGCACUU	0.624
GCAGCAAGUAAAAACAAAUGGAAAUGCUUCGGAUAGUGGCAGGGGUGGGGGUUGCUAAGGAAAGGGUGGGAUGGGAGUGGGUAAAGAGUU	1.19
ACCAUGCAGGUGGGCAUCUUUGGGAAGUGGGGCAAGGGGGGGAUAGGGAGGGGGGUAACACUUUGGGAACAGGUGGUCCCAGGUCAUUUC	0.881
UGGCCCUGGUGGCAUGCGGGGAGGAAGAGGUGGCCUCAUGGAUCGUUGUGGUCCCGGUGGAAUGUUCAGAGGUGGCCGUGGUGGAGACAG	0.7
AAGUCCUGUGCUACACAUCGUAUGUACCGAAUCGGGUUUUGGUUUUGGGGUUUUGGGAAAGUAUUAUGUUACGCCGUUCGGAUCUGCACU	-0.0171
CACAGACAACACGCACCCACACAGACACAGAGGGAAGGGGUUGGGAUGGGGACAGGGUGCACAACAGGGCGGGGUAGGACCCCAGCCCCU	-0.0215
ACCAUGCAGGUGGGCAUCUUUGGGAAGUGGGGCAAGGGGGGGAUAGGGAGGGGCGUAACACUUUGGGAACAGGUGGUCCCAGGUCGUUUC	0.932
GUCCUGUGCUACACAUCGUAUGUACCGAAUCGGGGUGGGGAAAAAAAGGGGAAAGGGGAAAGUAUUAUGUUACGCCGUUCGGAUCUGCAC	1.28

Study 3 — technique: RNAcompete; molecule type: RNA; medium: in vitro; tested at: 20 nM; notes: 7-mer, probes averaged, single round; baseline: mean of 7-mers; direction: higher = stronger binding
Target: PABPC1L2, full length, GST fusion (mouse, UniProt A0ABA7IW68)
Target sequence (chain): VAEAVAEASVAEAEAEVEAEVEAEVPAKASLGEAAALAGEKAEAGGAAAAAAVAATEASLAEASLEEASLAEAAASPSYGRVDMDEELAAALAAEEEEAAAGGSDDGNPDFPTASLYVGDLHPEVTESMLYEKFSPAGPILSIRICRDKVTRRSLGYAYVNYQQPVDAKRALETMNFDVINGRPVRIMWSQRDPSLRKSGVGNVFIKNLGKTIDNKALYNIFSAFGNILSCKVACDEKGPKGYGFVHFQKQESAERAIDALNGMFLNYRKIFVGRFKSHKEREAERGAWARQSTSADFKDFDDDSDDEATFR
Sequence	7-mer Z-score
ACCAGCC	-0.309
GUUCAUA	-0.287
AGACGUA	-0.224
ACACAGA	0.213
AAUGCAG	0.314
AUUCGUC	-0.353
AGUAACA	0.151
CGGGGUU	-0.17
GGUAACA	0.298
ACAAAAA	21.6
GAGUAUG	-0.106
GUCCCGC	-0.353
AGAUUAC	-0.238
GCCUGUU	-0.365
AAGCCCU	-0.217
CGUGCCC	-0.291
GGCCAUA	-0.0772
AUUUAAU	0.209
GAAAUUA	0.749
UUCUUCG	-0.434

Study 4 — technique: RNA Bind-n-Seq; molecule type: RNA; medium: in vitro; tested at: 100 nM; notes: RNA with constant flanks, ends assumed; baseline: input RNA pool; direction: higher = stronger binding
Target: RING finger protein unkempt homolog, zinc fingers 1-6, SBP tag (UNK, Homo sapiens, UniProt Q9C0B0, residues 30-357)
UniProt Q9C0B0, sequence (30-357, looked up): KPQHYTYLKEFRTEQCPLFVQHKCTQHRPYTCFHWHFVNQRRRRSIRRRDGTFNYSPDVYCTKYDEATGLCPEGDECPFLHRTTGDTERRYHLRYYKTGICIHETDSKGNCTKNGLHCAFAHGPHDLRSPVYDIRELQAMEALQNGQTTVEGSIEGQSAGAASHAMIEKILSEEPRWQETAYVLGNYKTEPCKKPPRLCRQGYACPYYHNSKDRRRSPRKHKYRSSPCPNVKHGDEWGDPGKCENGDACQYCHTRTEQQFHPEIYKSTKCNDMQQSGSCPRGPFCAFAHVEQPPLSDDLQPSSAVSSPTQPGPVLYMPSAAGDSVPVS
Shared flanks, not repeated: GGGAGUUCUACAGUCCGACGAUC … CAACAGAGGAUUGAGCAUCA
Sequence	bound/input enrichment [ratio]
UGCAUUAUUUGACCAGAGUUGAAGUGACAGAAUUUGAAGAUAUUAAAUCAGGUUACAGAACCGAUUUUUAUUUUGAUGAAAAUCCUUACUUUGAAAAUAAAGUUCUCUCCAAAGAAUUUC	0.196
GGGACGUUUUGAUGUAAAAAUUGAAGUUAAGAGCUGAUCACAAGCACAAAUCUUUCCCACCCGCCAUUUAAUAAGUUAAAAAAAGAUACAAAAACAAAAACCUACCCGUCUUGAACAAAC	0.531
UAUUGUAUGCCGAGAAAAAUUUUCAUUGACUCCCAUUGUGGAAUUCCCCCGCAAUUUAUUCCGACUUAAUUUUUUAAAUUCAAGCUUACUGUAUCCGUCAUUUUCCGCCCAUAAUUAAAA	1.49
CUACUAUAAACAACUCAGGGCAGUAUUCUCGAUAUCCUUACAGUAACCUAAAUCAGGGAUCCGUUAACAAUACAGGGAUGAAUCAAAAUUCCGGCCUUACAAAUAAUACUCCAAUGAAUC	0.531
CUUUUUUUUUUGCACAUGACAGUGUUUGUAUUGAGGACCUUCCAAGGAAGAGGGAUGCUGCCGCAGUGGUGCCUGGGUGCCUGGCCUCCAGUGUCCCACCUCCUUCACCACCCCACUUGG	0.466

Study 5 — technique: protein binding microarray; molecule type: double-stranded DNA, one strand shown; medium: in vitro; tested at: not given; baseline: not given; direction: higher = stronger binding
Target: Histone acetyltransferase KAT6A, winged helix 1, GST fusion (KAT6A, Homo sapiens, UniProt Q92794, residues 1-85)
Notes: 8-mer, flanks averaged, mean of 2 arrays, mostly near background
Target sequence (chain): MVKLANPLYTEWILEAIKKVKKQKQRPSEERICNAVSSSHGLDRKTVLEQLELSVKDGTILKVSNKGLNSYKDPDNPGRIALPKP
Sequence	E-score
GAGCCGAC	0.29
CGCACTAG	0.142
AGTGTGCC	-0.0877
AGGAGACC	-0.135
AAGGGTAC	-0.19
ACCAACTC	-0.296
CCGTCCTC	0.177
CTCGCAGC	-0.0794
CCCGGCTC	0.142
GCCGGCGA	0.403
CTATTTGC	-0.124
CAAGACCC	-0.168
CTCCCGAA	-0.0724
CGAGGTTC	0.00618
GGGTGTGA	-0.0544
ACGTCGGG	0.283
ACGATGGG	-0.157
AATGTGAA	-0.143
GCAATTCA	0.033
GGGACTAA	-0.0712
GAGTTTGC	0.0569
CTATGAGA	-0.138

Repeated from above (study 5):
Sequence	E-score
AGTGTGCC	-0.0877
GAGTTTGC	0.0569
GGGTGTGA	-0.0544
GCAATTCA	0.033
CCCGGCTC	0.142
CTCCCGAA	-0.0724
CTATTTGC	-0.124
CGAGGTTC	0.00618
